Experimental data collected from several papers.
± marks the error that the study gave.

SMILES	method	sample	time	pH	notes	logD
Cc1nonc1Cn1nnc2c(N3CC[C@H](O)C3)nc(C(C)(C)C)nc21				pH 7.4		3.68 ± 0.04
CN1C(=O)Cc2ccc(F)c(CCNC[C@H]3CN(c4ccc5c(n4)NC(=O)CO5)C(=O)O3)c21	eLogD					1.65
COc1ccc2c3c1O[C@H]1[C@@H](O)C=C[C@@]4(O)[C@@H](C2)N(C)CC[C@]314		octanol/buffer	1 h	pH 7.4		-0.86
CS(=O)(=O)NC(=O)NCc1ccccc1				pH 7.4	second measurement	-1.29
CCOC(=O)C(CCCOC)NC(=O)c1ccc(C2CC2)c(Cc2ccc(F)cc2)n1 (stereo not shown)						3.3
O=C1NC(=O)C(Cc2ccccc2)S1 (stereo not shown)				pH 7.4	third measurement	1.09
FC(F)(F)[C@@]1(c2ccccc2)COC[C@@H](c2cccnc2)N1	shake-flask, 1-octanol/buffer			pH 7.4		> 4.7
CN1C(=O)Cc2ccc(F)c(CCNCC[C@H]3CN(c4ccc5c(n4)NC(=O)CO5)C(=O)O3)c21	eLogD					0.96
NC(=O)[C@@H]1CC(F)(F)CN1C(=O)c1ccc(N2CC(F)(F)C2)c(OCC2CC2)n1				pH 7.4		2.47 ± 0.03
c1ccc(CCc2nnn[nH]2)cc1				pH 7.4	third measurement	-0.17
CC(C)C[C@@H](NC(=O)[C@H](C)NC(=O)CNC(=O)[C@@H](NC=O)C(C)C)C(=O)N[C@@H](C)C(=O)N[C@@H](C(=O)N[C@H](C(=O)N[C@@H](C(=O)N[C@@H](Cc1c[nH]c2ccccc12)C(=O)N[C@H](CC(C)C)C(=O)N[C@@H](Cc1cccc2[nH]ccc12)C(=O)N[C@H](CC(C)C)C(=O)N[C@@H](Cc1c[nH]c2ccccc12)C(=O)N[C@H](CC(C)C)C(=O)N[C@@H](Cc1c[nH]c2ccccc12)C(=O)NCCO)C(C)C)C(C)C)C(C)C	UHPLC retention on C18					5.1
CCCCC1CNC2CCc3ccc(OC)cc3C12.Cl (racemic)		octanol/aqueous buffer		pH 7.4		1.81
CCC(CNc1nc(-c2cn3ccnc3cc2C)nc2ccccc12)c1ccccc1 (stereo not shown)						4.1
COc1ccc2c3c1O[C@H]1[C@@H](O)CC[C@@]4(O)[C@@H](C2)N(C)CC[C@]314		octanol/borax buffer	1 h	pH 9.22		0.69
Cn1c(=O)ccc2ccc(F)c(CCNC[C@H]3CN(c4ncc5c(n4)NC(=O)CO5)C(=O)O3)c21	eLogD					0.58
CC(c1cccc(-c2c[nH]cn2)c1)n1cc(-c2cccc3cn[nH]c23)c(=O)[nH]c1=O (stereo not shown)		octanol/water		pH 7.4		2.25
O=C(O)CCc1ccccc1				pH 7.4	first measurement	-0.29
CC(C)C[C@@H](NC(=O)[C@H](C)NC(=O)CNC(=O)[C@@H](NC=O)C(C)C)C(=O)N[C@@H](C)C(=O)N[C@@H](C(=O)N[C@H](C(=O)N[C@@H](C(=O)N[C@@H](Cc1c[nH]c2ccccc12)C(=O)N[C@H](CC(C)C)C(=O)N[C@@H](Cc1cc2ccccc2[nH]1)C(=O)N[C@H](CC(C)C)C(=O)N[C@@H](Cc1c[nH]c2ccccc12)C(=O)N[C@H](CC(C)C)C(=O)N[C@@H](Cc1c[nH]c2ccccc12)C(=O)NCCO)C(C)C)C(C)C)C(C)C	UHPLC retention on C18					6.29
CN1CC[C@]23c4c5ccc(O)c4O[C@H]2[C@@H](O)C=C[C@@]3(O)[C@H]1C5		octanol/buffer	1 h	pH 7.4		-0.93
CN1C(=O)Cc2ccc(F)c(CNCCCC3CN(c4ccc5c(n4)NC(=O)CO5)C(=O)O3)c21 (stereo not shown)	eLogD					1.06
[2H]C([2H])([2H])C1(C([2H])([2H])[2H])NC(=O)N(c2ccc(F)c(C(F)(F)F)c2)C1=O	chromatographic HPLC			pH 7.4		2.7
CC(c1ccccc1)n1cc(-c2cc(F)cc3c(C#N)n[nH]c23)c(=O)[nH]c1=O (stereo not shown)		octanol/water		pH 7.4		3.06
C[C@]12CC[C@H]3[C@@H](CC=C4CC(O)CC[C@@]43CO)[C@@H]1CCC2O (stereo partly shown)						2.14
Cc1n[nH]c2c(-c3cn(C(C)c4ccccc4)c(=O)[nH]c3=O)cccc12 (stereo not shown)		octanol/water		pH 7.4		2.73
CC(C)C[C@@H](NC(=O)[C@H](C)NC(=O)CNC(=O)[C@@H](NC=O)C(C)C)C(=O)N[C@@H](C)C(=O)N[C@@H](C(=O)N[C@H](C(=O)N[C@@H](C(=O)N[C@@H](Cc1c[nH]c2ccccc12)C(=O)N[C@H](CC(C)C)C(=O)N[C@@H](Cc1ccc2[nH]ccc2c1)C(=O)N[C@H](CC(C)C)C(=O)N[C@@H](Cc1c[nH]c2ccccc12)C(=O)N[C@@H](C(=O)N[C@@H](Cc1c[nH]c2ccccc12)C(=O)NCCO)C(C)C)[C@H](C)O)C(C)C)C(C)C	UHPLC retention on C18					4.02

Excerpt of the above:
SMILES	method	sample	time	pH	notes	logD
CN1C(=O)Cc2ccc(F)c(CCNC[C@H]3CN(c4ccc5c(n4)NC(=O)CO5)C(=O)O3)c21	eLogD					1.65
COc1ccc2c3c1O[C@H]1[C@@H](O)C=C[C@@]4(O)[C@@H](C2)N(C)CC[C@]314		octanol/buffer	1 h	pH 7.4		-0.86
